{"data": "Experimental data of several laboratories", "note": "Each numbered part is a random draw from the data of one study; scales do not carry over between parts."}
{"data": "Study 1", "target": "Histone acetyltransferase KAT6A, winged helix 1, GST fusion (KAT6A, Homo sapiens, UniProt Q92794, residues 1-85)", "technique": "protein binding microarray", "molecule type": "double-stranded DNA, one strand shown", "sample": "in vitro", "tested at": "not given", "setting": "8-mer, flanks averaged, mean of 2 arrays, mostly near background", "reference": "not given", "direction": "higher = stronger binding", "Target sequence (chain)": "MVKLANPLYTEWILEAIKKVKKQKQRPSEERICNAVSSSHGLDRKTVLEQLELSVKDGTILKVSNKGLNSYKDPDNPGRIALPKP"}
{"Strand": "AACAAATT", "E-score": -0.0261}
{"Strand": "CATCGTAA", "E-score": 0.0593}
{"Strand": "GGTGAAAA", "E-score": -0.0577}
{"Strand": "CGTGAATC", "E-score": -0.0397}
{"Strand": "AGCTTGAC", "E-score": -0.102}
{"data": "Study 2", "target": "Centromere-binding protein 1, full length, N-terminal tag (CBF1, Saccharomyces cerevisiae, UniProt P17106, residues 1-351)", "technique": "protein-binding microarray", "molecule type": "double-stranded DNA, one strand shown", "sample": "in vitro", "tested at": "0.8 µM", "setting": "whole 60-bp probe, no competitor", "direction": "higher = stronger binding", "all sequences stand within": "… GTCTTGATTCGCTTGACGCTGCTG", "chain of UniProt P17106 (whole entry, looked up)": "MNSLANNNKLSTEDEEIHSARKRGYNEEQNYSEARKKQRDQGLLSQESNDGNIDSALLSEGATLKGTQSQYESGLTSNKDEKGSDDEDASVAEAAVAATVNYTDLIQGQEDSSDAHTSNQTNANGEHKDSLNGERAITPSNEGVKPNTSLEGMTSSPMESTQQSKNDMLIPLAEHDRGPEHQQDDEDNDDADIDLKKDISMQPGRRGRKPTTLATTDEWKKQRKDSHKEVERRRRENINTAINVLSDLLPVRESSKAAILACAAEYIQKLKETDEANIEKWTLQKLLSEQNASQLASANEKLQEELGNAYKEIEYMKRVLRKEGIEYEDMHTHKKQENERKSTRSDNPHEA"}
{"Strand": "CTATCGTTCCTCGCGCACGCGATTTTGCGTTCTTTC", "fluorescence intensity [a.u.]": 568}
{"Strand": "CCTAACTACTATACGCCCGTGCAATAGCTTCGTACA", "fluorescence intensity [a.u.]": 551}
{"Strand": "CTATACTACTGGTCAATCGTGATATTTATGAACTTC", "fluorescence intensity [a.u.]": 571}
{"Strand": "GAATTCACTGTACATCACGGGTCCGCCTGGCACTAG", "fluorescence intensity [a.u.]": 907}
{"Strand": "CTAAGTTAATTTTGTCACCTTAGACTACCAATTTTC", "fluorescence intensity [a.u.]": 514}
{"data": "Study 3", "target": "Sal-like protein 4, full length isoform B (SALL4, Homo sapiens, UniProt Q9UJQ4-2, residues 1-616)", "technique": "universal PBM", "molecule type": "double-stranded DNA, one strand shown", "sample": "in vitro", "tested at": "not given", "setting": "8-mer, flanks averaged, mean of replicates", "direction": "higher = stronger binding", "Target sequence (chain)": "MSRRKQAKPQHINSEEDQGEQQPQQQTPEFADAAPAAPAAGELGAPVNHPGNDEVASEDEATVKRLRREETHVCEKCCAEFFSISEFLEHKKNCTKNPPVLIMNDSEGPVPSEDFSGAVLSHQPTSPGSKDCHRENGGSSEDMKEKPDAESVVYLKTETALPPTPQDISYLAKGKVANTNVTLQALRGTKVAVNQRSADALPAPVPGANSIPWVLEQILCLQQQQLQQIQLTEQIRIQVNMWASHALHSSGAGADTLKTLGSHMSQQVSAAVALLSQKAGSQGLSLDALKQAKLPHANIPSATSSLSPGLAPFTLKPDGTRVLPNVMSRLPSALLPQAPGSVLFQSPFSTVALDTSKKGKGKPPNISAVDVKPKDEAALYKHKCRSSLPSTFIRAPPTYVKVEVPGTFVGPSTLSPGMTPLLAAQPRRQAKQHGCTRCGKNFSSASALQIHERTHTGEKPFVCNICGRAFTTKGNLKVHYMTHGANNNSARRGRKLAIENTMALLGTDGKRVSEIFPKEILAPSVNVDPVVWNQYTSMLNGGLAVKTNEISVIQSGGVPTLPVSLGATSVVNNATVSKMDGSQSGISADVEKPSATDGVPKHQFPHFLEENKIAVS"}
{"Strand": "CAATGACC", "E-score": -0.099}
{"Strand": "GAGATCGC", "E-score": -0.203}
{"Strand": "CCGGATTC", "E-score": -0.241}
{"Strand": "ATACTAAG", "E-score": 0.183}
{"Strand": "GCTGCGGA", "E-score": -0.155}
{"data": "Further values, each from its own experiment"}
{"Substance": "PhoQ, residues 284 288 289 292 302 303 SSLVEF", "target": "PhoP, residues 12 14 15 18 19 LWHVM (Escherichia coli, UniProt P23836)", "test": "Sort-seq, measured: YFP reporter", "system": "E. coli", "conditions": "PhoQ-PhoP variant library, added: 10 µM Mg2+", "scale": "reference: high Mg2+ state, higher = stronger signaling", "quantity": "fold induction", "value": 10}
{"note": "Repeated from above (study 3):"}
{"Strand": "GCTGCGGA", "E-score": -0.155}
{"Strand": "GAGATCGC", "E-score": -0.203}
